Results gathered from unrelated publications.
Every numbered part comes from another study and shows a few of its results, in no order. Changes are numbered by the printed parent chain.

Series 1
Target: inorganic phosphate, free oxyanion
Method: microfluidic competitive inhibition
Matrix: in vitro, cell-free expressed
Tested at: not given
Setting: derived from inhibition constants, unchanged parent 615000 nM
Reading: lower = stronger binding
Starting sequence: PafA, mature enzyme, eGFP fusion (Elizabethkingia meningoseptica, UniProt Q9KJX5); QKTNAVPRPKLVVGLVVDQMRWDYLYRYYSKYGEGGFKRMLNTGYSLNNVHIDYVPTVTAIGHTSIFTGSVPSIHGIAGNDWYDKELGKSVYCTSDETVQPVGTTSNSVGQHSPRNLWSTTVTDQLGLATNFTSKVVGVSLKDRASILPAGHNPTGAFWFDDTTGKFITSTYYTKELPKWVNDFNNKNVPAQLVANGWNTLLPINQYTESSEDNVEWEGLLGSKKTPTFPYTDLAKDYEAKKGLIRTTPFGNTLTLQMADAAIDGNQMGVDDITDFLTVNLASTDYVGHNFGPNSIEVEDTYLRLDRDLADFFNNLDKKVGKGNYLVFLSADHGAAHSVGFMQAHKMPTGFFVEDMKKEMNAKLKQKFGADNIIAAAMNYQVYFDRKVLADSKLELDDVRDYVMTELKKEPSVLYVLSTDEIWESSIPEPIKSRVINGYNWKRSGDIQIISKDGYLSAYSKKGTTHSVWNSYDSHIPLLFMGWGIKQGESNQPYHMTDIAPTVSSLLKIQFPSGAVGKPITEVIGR
| Change | phosphate dissociation constant [µM] |
| --- | --- |
| D398G | 667 |
| A376V | 581 |
| N214G | 558 |
| P512G | 405 |
| E421V | 678 |
| H475V | 506 |

Series 2
Target: PABPC1L2, full length, GST fusion (mouse, UniProt A0ABA7IW68)
Method: RNAcompete
Molecule type: RNA
Matrix: in vitro
Tested at: 20 nM
Setting: 7-mer, probes averaged, single round
Baseline: mean of 7-mers
Reading: higher = stronger binding
Target sequence (chain): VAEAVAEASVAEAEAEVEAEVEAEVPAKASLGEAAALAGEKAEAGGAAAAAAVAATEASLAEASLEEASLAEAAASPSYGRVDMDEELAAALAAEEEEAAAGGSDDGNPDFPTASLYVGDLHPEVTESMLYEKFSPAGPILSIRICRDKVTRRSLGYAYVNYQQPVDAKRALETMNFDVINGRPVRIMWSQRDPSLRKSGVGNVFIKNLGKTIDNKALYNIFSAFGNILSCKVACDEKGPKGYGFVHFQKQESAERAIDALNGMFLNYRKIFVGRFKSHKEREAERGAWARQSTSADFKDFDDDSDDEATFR
| Strand | 7-mer Z-score |
| --- | --- |
| UCAACGA | -0.233 |
| UCUGGAC | -0.188 |
| CUCCAGC | -0.291 |
| UGCUCUC | -0.443 |
| AAAUUAU | 1.08 |
| CCGGUCG | -0.112 |
| GAGGGGG | 0.311 |
| CAAAACG | 1.09 |

Series 3
Target: CCNE1, cyclin fold, Cln2 fusion (human)
Method: yeast growth competition, sequencing
Matrix: yeast
Setting: strong parent motif
Baseline: not given
Reading: higher = stronger binding
Starting sequence: viral docking peptide; TSVRRALFTGGSD; partner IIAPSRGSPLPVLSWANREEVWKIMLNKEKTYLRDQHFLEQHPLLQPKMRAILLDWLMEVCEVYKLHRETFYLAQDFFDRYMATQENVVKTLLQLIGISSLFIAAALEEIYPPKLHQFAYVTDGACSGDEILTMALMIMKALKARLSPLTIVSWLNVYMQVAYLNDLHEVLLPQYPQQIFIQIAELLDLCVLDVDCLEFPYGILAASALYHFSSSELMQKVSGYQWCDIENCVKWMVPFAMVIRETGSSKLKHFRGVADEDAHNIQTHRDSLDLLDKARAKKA
| Change | normalised enrichment score |
| --- | --- |
| F8R | 0.0872 |
| V3C | 4.29 |
| T9W | 3.21 |
| R5N | 0.558 |
| T9D | 4.61 |
| S12Y | 5.47 |
| R5D | -0.0761 |
| G11V | 5.64 |
| G10L | 5 |
| V3Q | -0.144 |
| G10C | 5.44 |
| G10K | 4.33 |
| T9V | 5.78 |
| L7Y | 0.511 |
| S12C | 5.69 |
| R4W | 0.832 |
| S12N | 5.79 |
| A6V | 6.97 |
| V3R | 0.259 |

Series 4
Target: UDP-N-acetylglucosamine--peptide N-acetylglucosaminyltransferase 110 kDa subunit (OGT, Homo sapiens, UniProt O15294)
Observed: phage display binding
Method: phage display panning NGS
Molecule type: peptide
Setting: panning round 3
Baseline: OGT-panned over input library
Target sequence (O15294 1-1046): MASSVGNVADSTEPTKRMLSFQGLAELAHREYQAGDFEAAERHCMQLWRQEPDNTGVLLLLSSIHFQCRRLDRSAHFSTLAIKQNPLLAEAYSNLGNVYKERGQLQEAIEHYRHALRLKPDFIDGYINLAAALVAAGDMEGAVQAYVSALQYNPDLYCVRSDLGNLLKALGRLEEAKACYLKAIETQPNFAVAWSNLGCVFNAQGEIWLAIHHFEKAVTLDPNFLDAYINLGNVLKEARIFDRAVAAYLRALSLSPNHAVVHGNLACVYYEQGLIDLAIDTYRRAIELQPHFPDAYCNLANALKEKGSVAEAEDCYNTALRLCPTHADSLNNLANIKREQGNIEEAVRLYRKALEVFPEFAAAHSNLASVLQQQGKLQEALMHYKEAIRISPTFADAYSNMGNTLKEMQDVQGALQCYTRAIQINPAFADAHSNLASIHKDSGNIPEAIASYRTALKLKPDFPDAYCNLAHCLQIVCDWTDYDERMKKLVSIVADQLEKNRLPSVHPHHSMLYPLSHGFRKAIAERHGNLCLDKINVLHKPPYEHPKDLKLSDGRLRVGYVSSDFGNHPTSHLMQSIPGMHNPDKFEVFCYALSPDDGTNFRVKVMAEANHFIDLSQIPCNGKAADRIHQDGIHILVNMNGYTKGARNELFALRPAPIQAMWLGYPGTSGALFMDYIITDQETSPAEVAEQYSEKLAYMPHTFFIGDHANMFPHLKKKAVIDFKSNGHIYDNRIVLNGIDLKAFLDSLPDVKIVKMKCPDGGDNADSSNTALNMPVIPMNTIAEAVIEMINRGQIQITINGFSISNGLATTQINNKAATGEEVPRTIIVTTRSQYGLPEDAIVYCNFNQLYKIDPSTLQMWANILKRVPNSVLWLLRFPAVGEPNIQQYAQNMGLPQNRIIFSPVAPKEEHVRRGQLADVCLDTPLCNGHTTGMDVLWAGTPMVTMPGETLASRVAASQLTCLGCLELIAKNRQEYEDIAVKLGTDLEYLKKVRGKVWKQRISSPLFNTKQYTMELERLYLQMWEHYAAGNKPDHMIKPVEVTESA
| Molecule | fold enrichment |
| --- | --- |
| YFTTPMYQIYYERA | 2.91 |
| EFFPPAYQLVVPYGD | 3.04 |
| YWDAGAFSPKYMIQI | 4.09 |
| YFGRVTFPPKYQIVF | 4.4 |

Mixed results
| Substance | partner | method | matrix | with | endpoint | value |
| --- | --- | --- | --- | --- | --- | --- |
| SDHA (Homo sapiens, UniProt P31040) | H1-8 (Homo sapiens, UniProt Q8IZA3) | cross-linking MS | cells | BSPNO | cross-linked residues | K517 to K139 |
